Published values gathered from unrelated publications.
Each numbered part is a random draw from the data of one study; scales do not carry over between parts. Positions count from the first letter of the parent shown.

Block 1 — read-out: peptide-MHC binding; molecule type: peptide; tested at: concentration not given
Target: HLA class I histocompatibility antigen, A alpha chain, allele A*25:01 (Homo sapiens, UniProt P04439)
| Molecule | binding |
| --- | --- |
| PVTPVIPRV | inactive |
| EIPDVLNSL | active |
| FLRKNQRAL | inactive |
| KQLPPLAAW | inactive |
| LNWFEIWIV | inactive |
| KLYLRPWWH | inactive |
| MRNTIMASK | inactive |
| VYWENEVSI | inactive |
| LPYPVLLKI | inactive |

Block 2 — target: UBE2D2 UBC core domain (UniProt P62837); technique: yeast two-hybrid; medium: yeast; notes: mostly zero background; baseline: not given; direction: higher = stronger interaction
Sequence of UniProt P62837 (whole entry, looked up): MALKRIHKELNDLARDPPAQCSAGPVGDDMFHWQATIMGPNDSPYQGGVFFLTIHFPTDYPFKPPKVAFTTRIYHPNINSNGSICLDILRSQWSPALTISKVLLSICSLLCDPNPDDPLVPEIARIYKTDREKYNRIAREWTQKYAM
B1: RNF122 RING domain (UniProt Q9H9V4); chain AKKLQLYGQTCAVCLEDFKGKDELGVLPCQHAFHRKCLVKWLEVRCVCPMCNKPIASPSEAT
B2: TRIM37 RING domain (UniProt O94972); chain SVESIAEVFRCFICMEKLRDARLCPHCSKLCCFSCIRRWLTEQRAQCPHCRAPLQLRELVN
B3: TRIM26 RING domain (UniProt Q12899); chain PLRSLEEEVTCSICLDYLRDPVTIDCGHVFCRSCTTDVRPISGSRPVCPLCKKPFKKENIRP
B4: TRIM22 RING domain (UniProt Q8IYM9); chain VKVDIEKEVTCPICLELLTEPLSLDCGHSFCQACITAKIKESVIISRGESSCPVCQTRFQPGNLRP
B5: RNF166 RING domain (UniProt Q96A37); chain GDSGLEAQYTCPICLEVYHRPVAIGSCGHTFCGECLQPCLQVPSPLCPLCRLPFDPKKVDK
| Molecule | lacZ reporter activity |
| --- | --- |
| B1 (RNF122 RING domain) | 0 |
| B2 (TRIM37 RING domain) | 0 |
| B3 (TRIM26 RING domain) | 0 |
| B4 (TRIM22 RING domain) | 0 |
| RYRQMEERITCPICIDSHIRLVFQCGHGACAPCGSALSACPICRQPIRDRIQIF (MIB2 RING domain (UniProt Q96AX9)) | 0 |
| PEELAVNNDDCAICWDSMQAARKLPCGHLFHNSCLRSWLEQDTSCPTCRMSLNIADNNR (AMFR RING domain (UniProt Q9UKV5)) | 10200 |
| B5 (RNF166 RING domain) | 0 |
| AEADPLGRFTCPVCLEVYEKPVQVPCGHVFCSACLQECLKPKKPVCGVCRSALAPGVRAV (RNF114 RING domain (UniProt Q9Y508)) | 0 |

Block 3 — target: CCNE1, cyclin fold, Cln2 fusion (human); technique: yeast growth competition, sequencing; medium: yeast; notes: strong parent motif; baseline: not given; direction: higher = stronger binding
Starting sequence: viral docking peptide; TSVRRALFTGGSD; partner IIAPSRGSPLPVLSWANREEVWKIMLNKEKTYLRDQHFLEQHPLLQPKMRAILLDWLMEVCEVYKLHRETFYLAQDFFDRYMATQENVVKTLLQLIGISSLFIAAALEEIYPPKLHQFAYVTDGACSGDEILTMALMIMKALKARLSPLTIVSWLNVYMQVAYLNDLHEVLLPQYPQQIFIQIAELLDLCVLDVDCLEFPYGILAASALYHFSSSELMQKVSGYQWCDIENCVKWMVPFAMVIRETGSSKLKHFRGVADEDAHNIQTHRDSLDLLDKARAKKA
| Substitution | normalised enrichment score |
| --- | --- |
| TSVRRSLFTGGSD [A6S] | 3.4 |
| TSVRRAKFTGGSD [L7K] | 0.111 |
| TSVCRALFTGGSD [R4C] | 5.35 |
| TSVRRALMTGGSD [F8M] | 0.406 |
| TSVFRALFTGGSD [R4F] | 1.21 |
| TSVRRALFTGGKD [S12K] | 4.99 |
| TSVRRASFTGGSD [L7S] | -0.121 |
| TSVRRILFTGGSD [A6I] | 6.7 |
| TSVERALFTGGSD [R4E] | 0.3 |
| TSVRRALFTGGMD [S12M] | 5.25 |
| TYVRRALFTGGSD [S2Y] | 4.37 |
| TSVRRPLFTGGSD [A6P] | 0.975 |
| TSVRRALNTGGSD [F8N] | 0.421 |
| TSVRRALFSGGSD [T9S] | 5.2 |
| TQVRRALFTGGSD [S2Q] | 4.7 |
| TSVRRALFTTGSD [G10T] | 5.76 |
| TSVRLALFTGGSD [R5L] | -0.108 |
| TSVRQALFTGGSD [R5Q] | 0.327 |
| TSVRYALFTGGSD [R5Y] | 0.141 |
| TSVRRAPFTGGSD [L7P] | -0.227 |
| TSNRRALFTGGSD [V3N] | -0.295 |
| TSHRRALFTGGSD [V3H] | 2.16 |
| TSVRRGLFTGGSD [A6G] | 1.29 |
| TSVRGALFTGGSD [R5G] | -0.00131 |
| TSVRRAMFTGGSD [L7M] | 0.313 |

Block 4 — technique: protein-binding microarray; molecule type: hairpin DNA; medium: in vitro; tested at: not given; baseline: not given; direction: higher = stronger binding
Target: Cellular tumor antigen p53, full length (TP53, Homo sapiens, UniProt P04637, residues 1-393)
Notes: whole hairpin DNA, median over replicate spots
| Oligonucleotide | median fluorescence [a.u.] |
| --- | --- |
| CGGACATACCCGGGCATGTCTCCTGACATGCCCGGGTATGTCCGACACTC | 10300 |
| CGGACATGCCCGGGCATGTCTCCTGACATGCCCGGGCATGTCCGACACTC (5mC at 5) | 20300 |
| CCACACGAGGTGGCATGCCTTCCTAGGCATGCCACCTCGTGTGGACACTC | 6730 |
| CGGACATGCCGGGGCATGTCTCCTGACATGCCCCGGCATGTCCGACACTC (5mC at 34) | 17200 |
| CGGACATGCCCGGGCCTGTCTCCTGACAGGCCCGGGCATGTCCGACACTC (5mC at 16) | 11700 |
| CCACACGTGCGGGCATGCCTTCCTAGGCATGCCCGCACGTGTGGACACTC (5mC at 10 34) | 10700 |
| CGGACATGCCCGGGCATGTCTCCTGACATGCCCGGGCATGTCCGACACTC (5mC at 33) | 20200 |
| CCACCCGTGGTGGCATGCCTTCCTAGGCATGCCACCACGGGTGGACACTC (5mC at 5) | 6660 |

Some of these lines once more (block 3):
| Substitution | normalised enrichment score |
| --- | --- |
| TSVRRPLFTGGSD [A6P] | 0.975 |
| TQVRRALFTGGSD [S2Q] | 4.7 |
| TSVRRAKFTGGSD [L7K] | 0.111 |
| TSVRRALFTGGKD [S12K] | 4.99 |
| TSHRRALFTGGSD [V3H] | 2.16 |
